# Measured values collected from several papers.
# Lines come from different studies, so protocols differ.
# PIK3CA M1043I: Phosphatidylinositol 4,5-bisphosphate 3-kinase catalytic subunit alpha isoform (PIK3CA, Homo sapiens, UniProt P42336, M1043I)
# PIK3CA H1047L: Phosphatidylinositol 4,5-bisphosphate 3-kinase catalytic subunit alpha isoform (PIK3CA, Homo sapiens, UniProt P42336, H1047L)
# PIK3CA E545K: Phosphatidylinositol 4,5-bisphosphate 3-kinase catalytic subunit alpha isoform (PIK3CA, Homo sapiens, UniProt P42336, E545K)
# PIK3CA: Phosphatidylinositol 4,5-bisphosphate 3-kinase catalytic subunit alpha isoform (PIK3CA, Homo sapiens, UniProt P42336)
Structure (SMILES),target,assay,conditions,how to read,remaining binding [%]
COc1c(Cl)cccc1Nc1c(-c2ccncc2C#C[C@@]2(C)CCCN2C(=O)/C=C/CN(C)C)[nH]c2c1C(=O)NCC2,PIK3CA M1043I,"binding, competition with immobilised ligand",3 µM,,66
CCN1CCN(Cc2ccc(C(=O)Nc3ccc(C)c(NCc4cnc5[nH]ccc5c4OC)c3)cc2C(F)(F)F)CC1,PIK3CA H1047L,"binding, competition with immobilised ligand",1 µM,,76
Nc1ncc2c(n1)-c1c([nH]c3ccc(C4=CCOCC4)cc13)CCC2,"Phosphatidylinositol 4,5-bisphosphate 3-kinase catalytic subunit alpha isoform (PIK3CA, Homo sapiens, UniProt P42336, I800L)","binding, competition with immobilised ligand",1 µM,,100
C=CC(=O)N1CCCC(n2c(=O)c3ncccc3n(Cc3ccc(Oc4ccccc4)cc3)c2=O)C1 (centres unmarked),PIK3CA E545K,"cell-free assay, competition with immobilised ligand",1 µM,,68
Cc1cnc2nc1Nc1cccc(c1)COC/C=C/COCc1cc(ccc1OCCN1CCOCC1)N2,PIK3CA E545K,binding,0.1 µM,,74
C=CC(=O)N1CCc2ccc(-n3c(=O)ccc4cnc5ccc(-c6cnn(C)c6)cc5c43)cc21,PIK3CA H1047L,KINOMEscan,1 µM,reference: DMSO control,83
CNC(=O)C1CCN(c2cc(C)c(F)cc2NC(=O)c2ccc(-c3cc(O)ccc3C)c(C)c2)CC1,PIK3CA,"binding, competition with immobilised ligand",1 µM,,93
CNC1C[S+]2CC[S+]3CC[S+](C1)[Ru-4]321([N]=C=S)[n]2c3ccc(OC)cc3c3c4c(c5cc(F)c[n+]1c5c32)C(=O)NC4=O (centres unmarked),PIK3CA M1043I,KinomeScan,0.1 µM,reference: untreated,77
Cc1ccc(-c2c(/C=C(\C#N)C(=O)NC(C)C)n(CCCO)c3ncnc(N)c23)cc1,"Phosphatidylinositol 4,5-bisphosphate 3-kinase catalytic subunit alpha isoform (PIK3CA, Homo sapiens, UniProt P42336, Q546K)","cell-free assay, competition with immobilised ligand",1 µM,,96
CC(=O)c1cnc(N)nc1N1CC[C@H]1c1nn2ccc(Cl)c2c(=O)n1-c1ccccc1,PIK3CA,"cell-free assay, competition with immobilised ligand",10 µM,,71
CC(C)=CC1OC(C)(C)C2C=C3C(=O)C(Cl)=CC(O)C3C3C(O)C4OC4C(=O)C132 (centres unmarked),"Phosphatidylinositol 4,5-bisphosphate 3-kinase catalytic subunit alpha isoform (PIK3CA, Homo sapiens, UniProt P42336, H1047Y)","cell-free assay, competition with immobilised ligand",10 µM,,70
